Assay results from different studies.
Every numbered part comes from another study and shows a few of its results, in no order.
Sequence of UniProt O95382 (whole entry, looked up): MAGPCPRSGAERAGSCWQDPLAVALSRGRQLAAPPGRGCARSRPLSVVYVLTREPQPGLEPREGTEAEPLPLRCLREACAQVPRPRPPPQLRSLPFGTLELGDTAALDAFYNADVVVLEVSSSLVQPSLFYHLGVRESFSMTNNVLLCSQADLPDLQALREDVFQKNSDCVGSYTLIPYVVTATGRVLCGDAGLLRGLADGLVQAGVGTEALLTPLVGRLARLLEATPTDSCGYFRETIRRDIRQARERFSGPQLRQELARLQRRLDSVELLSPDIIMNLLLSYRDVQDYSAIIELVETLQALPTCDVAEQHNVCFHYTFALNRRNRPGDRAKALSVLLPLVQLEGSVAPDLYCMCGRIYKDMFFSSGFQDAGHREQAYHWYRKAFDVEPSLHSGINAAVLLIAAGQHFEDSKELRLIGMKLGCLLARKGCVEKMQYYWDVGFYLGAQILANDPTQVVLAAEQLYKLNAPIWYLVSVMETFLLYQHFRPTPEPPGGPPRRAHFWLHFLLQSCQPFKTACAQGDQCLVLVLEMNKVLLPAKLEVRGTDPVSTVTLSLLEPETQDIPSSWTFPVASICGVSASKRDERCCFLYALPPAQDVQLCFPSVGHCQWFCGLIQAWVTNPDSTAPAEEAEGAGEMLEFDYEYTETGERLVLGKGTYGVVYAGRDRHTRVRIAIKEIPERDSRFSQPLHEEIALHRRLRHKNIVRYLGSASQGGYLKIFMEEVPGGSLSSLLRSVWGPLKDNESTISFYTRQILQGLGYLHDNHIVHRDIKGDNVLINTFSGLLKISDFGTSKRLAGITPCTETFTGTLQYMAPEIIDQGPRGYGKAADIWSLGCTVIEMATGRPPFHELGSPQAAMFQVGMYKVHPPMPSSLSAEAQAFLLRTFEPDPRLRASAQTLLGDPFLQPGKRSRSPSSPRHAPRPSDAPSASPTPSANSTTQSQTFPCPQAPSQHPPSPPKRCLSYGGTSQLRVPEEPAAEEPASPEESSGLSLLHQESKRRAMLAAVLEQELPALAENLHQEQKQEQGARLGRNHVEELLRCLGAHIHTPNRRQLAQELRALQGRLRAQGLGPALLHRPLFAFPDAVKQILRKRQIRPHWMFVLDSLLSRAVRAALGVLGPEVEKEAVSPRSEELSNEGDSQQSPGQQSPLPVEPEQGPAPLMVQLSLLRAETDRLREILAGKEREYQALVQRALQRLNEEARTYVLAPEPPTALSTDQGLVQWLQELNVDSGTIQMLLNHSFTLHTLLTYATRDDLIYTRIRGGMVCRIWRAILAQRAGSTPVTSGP
Sequence of UniProt Q9H2K8 (whole entry, looked up): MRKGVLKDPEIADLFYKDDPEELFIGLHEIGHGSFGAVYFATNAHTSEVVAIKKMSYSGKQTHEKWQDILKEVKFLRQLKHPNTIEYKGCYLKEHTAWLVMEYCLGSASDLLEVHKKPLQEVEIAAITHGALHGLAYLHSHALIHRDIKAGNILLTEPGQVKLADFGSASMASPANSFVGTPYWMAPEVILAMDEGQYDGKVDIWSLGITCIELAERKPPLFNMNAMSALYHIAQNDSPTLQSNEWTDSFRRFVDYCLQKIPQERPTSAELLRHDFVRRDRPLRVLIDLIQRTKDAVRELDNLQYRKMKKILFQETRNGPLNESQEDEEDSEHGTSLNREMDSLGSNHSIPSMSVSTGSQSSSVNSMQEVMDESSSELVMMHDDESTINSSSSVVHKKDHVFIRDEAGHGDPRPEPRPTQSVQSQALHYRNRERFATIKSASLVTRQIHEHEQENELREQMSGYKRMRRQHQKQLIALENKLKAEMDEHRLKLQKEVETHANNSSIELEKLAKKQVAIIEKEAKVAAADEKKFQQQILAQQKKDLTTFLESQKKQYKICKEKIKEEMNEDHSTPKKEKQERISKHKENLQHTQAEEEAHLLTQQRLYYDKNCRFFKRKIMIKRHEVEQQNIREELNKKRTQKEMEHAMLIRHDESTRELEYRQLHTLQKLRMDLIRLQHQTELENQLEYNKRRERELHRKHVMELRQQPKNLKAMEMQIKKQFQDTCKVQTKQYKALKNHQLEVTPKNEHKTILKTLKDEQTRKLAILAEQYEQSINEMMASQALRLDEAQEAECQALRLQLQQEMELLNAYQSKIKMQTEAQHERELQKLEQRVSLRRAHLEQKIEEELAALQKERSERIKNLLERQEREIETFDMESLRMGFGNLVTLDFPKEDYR
Sequence of UniProt Q56UN5 (whole entry, looked up): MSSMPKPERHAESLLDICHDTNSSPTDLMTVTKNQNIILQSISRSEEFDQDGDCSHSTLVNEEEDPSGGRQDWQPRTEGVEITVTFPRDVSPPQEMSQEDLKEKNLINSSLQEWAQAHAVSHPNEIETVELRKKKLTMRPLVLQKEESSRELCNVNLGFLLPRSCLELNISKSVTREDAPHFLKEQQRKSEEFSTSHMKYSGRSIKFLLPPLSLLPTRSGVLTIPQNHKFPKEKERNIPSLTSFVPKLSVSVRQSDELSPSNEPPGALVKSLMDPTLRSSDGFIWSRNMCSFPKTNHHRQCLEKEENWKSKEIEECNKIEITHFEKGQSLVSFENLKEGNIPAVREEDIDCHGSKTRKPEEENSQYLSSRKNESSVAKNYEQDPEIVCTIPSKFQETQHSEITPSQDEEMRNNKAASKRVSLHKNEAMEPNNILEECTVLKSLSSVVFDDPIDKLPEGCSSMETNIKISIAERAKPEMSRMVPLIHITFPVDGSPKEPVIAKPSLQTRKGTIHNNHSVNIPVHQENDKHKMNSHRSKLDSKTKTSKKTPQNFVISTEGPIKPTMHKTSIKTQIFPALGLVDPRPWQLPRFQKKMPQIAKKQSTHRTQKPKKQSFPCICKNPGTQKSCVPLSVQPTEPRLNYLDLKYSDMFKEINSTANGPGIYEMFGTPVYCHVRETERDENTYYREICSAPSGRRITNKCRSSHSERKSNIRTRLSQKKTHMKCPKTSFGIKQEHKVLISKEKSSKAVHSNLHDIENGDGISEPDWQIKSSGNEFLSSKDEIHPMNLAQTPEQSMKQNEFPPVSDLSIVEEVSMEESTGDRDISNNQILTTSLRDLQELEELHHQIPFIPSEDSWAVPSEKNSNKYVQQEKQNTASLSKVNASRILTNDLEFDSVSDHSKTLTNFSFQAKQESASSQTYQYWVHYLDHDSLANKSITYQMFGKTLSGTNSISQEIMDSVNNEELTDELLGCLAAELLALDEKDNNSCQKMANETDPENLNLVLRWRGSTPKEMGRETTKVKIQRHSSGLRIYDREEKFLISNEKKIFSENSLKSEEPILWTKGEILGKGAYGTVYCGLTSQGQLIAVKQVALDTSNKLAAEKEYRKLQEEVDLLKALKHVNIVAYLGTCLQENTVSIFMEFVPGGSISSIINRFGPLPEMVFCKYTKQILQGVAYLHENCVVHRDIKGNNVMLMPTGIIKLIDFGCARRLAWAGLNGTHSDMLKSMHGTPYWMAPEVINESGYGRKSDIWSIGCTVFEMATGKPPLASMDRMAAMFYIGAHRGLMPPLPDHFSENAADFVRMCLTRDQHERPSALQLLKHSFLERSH

Sample 1 — SMILES: CC(C)(O)c1cncc(-c2nc3ccc(F)cc3n2C2CC2)c1; effect on: cell-free assay; method: competition with immobilised ligand; tested at: 1 µM
target | remaining binding [%]
Hepatocyte growth factor receptor (MET, Homo sapiens, UniProt P08581, Y1235D) | 100
Mitogen-activated protein kinase kinase kinase 19 (MAP3K19, Homo sapiens, UniProt Q56UN5) | 93
Serine/threonine-protein kinase TAO3 (TAOK3, Homo sapiens, UniProt Q9H2K8) | 100
Proto-oncogene tyrosine-protein kinase Src (SRC, Homo sapiens, UniProt P12931) | 100
Mitogen-activated protein kinase kinase kinase 6 (MAP3K6, Homo sapiens, UniProt O95382) | 100

Sample 2 — method: exponential regression of PRP log k'
SMILES | logD (1,9-decadiene/water)
Cc1ncsc1-c1ccc(CNC(=O)[C@@H]2C[C@@H](O)CN2C(=O)[C@@H](NC(=O)CCCCCNC(=O)C2CCCCC2)C(C)(C)C)cc1 | -2.67
COCC(=O)OCCCCCC(=O)N[C@H](C(=O)N1C[C@H](O)C[C@H]1C(=O)NCc1ccc(-c2scnc2C)cc1)C(C)(C)C | -3.98
CCCC(=O)OCCCCCC(=O)N[C@H](C(=O)N1C[C@H](O)C[C@H]1C(=O)NCc1ccc(-c2scnc2C)cc1)C(C)(C)C | -1.56
CCCC(=O)NCCCCCC(=O)N[C@H](C(=O)N1C[C@H](O)C[C@H]1C(=O)NCc1ccc(-c2scnc2C)cc1)C(C)(C)C | -4.89

Sample 3 — effect on: enzyme activity; mode: inhibitor; tested at: 0.5 µM; relative to: control
Target: Ephrin type-A receptor 1 (EPHA1, Homo sapiens, UniProt P21709)
Target sequence (P21709 1-976): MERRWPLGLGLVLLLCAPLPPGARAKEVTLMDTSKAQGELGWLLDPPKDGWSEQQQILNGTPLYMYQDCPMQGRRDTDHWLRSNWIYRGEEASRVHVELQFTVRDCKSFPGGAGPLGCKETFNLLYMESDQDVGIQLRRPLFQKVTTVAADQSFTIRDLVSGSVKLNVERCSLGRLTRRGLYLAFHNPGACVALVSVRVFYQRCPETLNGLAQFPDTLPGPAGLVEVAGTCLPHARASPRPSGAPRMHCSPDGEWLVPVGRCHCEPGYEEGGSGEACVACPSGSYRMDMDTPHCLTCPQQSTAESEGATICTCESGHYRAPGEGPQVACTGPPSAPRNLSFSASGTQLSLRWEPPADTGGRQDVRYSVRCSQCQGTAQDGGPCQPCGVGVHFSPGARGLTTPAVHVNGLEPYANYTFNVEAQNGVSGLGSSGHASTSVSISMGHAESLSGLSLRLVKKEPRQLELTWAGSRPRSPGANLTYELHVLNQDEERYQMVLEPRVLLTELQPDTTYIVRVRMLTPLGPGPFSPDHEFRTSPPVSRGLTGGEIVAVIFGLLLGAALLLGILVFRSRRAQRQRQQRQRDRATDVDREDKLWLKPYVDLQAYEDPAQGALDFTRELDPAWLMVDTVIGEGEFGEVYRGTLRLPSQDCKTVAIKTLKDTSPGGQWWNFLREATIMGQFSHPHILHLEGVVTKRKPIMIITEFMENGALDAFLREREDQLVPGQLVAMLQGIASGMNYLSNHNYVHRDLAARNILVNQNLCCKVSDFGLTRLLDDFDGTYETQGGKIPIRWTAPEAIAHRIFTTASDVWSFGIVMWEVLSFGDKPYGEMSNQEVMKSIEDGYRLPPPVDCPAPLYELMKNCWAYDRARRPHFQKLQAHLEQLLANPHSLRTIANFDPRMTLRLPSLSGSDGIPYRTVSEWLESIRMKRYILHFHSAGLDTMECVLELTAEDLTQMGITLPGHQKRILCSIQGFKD
Compound | remaining activity [%]
CCOC(=O)c1c(C)[nH]c(/C=C2\C(=O)Nc3ccccc32)c1C | 90.8
COc1ccc(C(=O)Nc2sc3c(c2C(N)=O)CCCC3)cc1OC | 88.1
CN(C)c1ccc(C=C2C(=O)Nc3ccccc32)cc1 | 93.7
Cc1ccc(NC(=O)c2ccc(CN3CCN(C)CC3)cc2)cc1Nc1nc(-c2cccnc2)cs1 | 96.5
CC(C)[C@H](CO)Nc1nc(Nc2cc(N)cc(Cl)c2)c2ncn(C(C)C)c2n1 | 76.9
Oc1ccc(-c2nc(-c3ccncc3)c(-c3ccc(F)cc3)[nH]2)cc1 | 94.4
COc1cc2ncnc(Nc3ccc(F)c(Cl)c3)c2cc1OCCCN1CCOCC1 | 87.4
Nc1ncnc2n[nH]c(Nc3ccc(F)cc3)c12 | 101
COc1ccc(OC)c2c(=S)c3ccccc3[nH]c12 | 89
N#CC(C#N)=C(N)/C(C#N)=C/c1ccc(O)cc1 | 103
C#Cc1cccc(Nc2ncnc3cc(OCCOC)c(OCCOC)cc23)c1 | 94.5
O=c1c2ccccc2[nH]c(=S)n1CCN1CCC(=C(c2ccc(F)cc2)c2ccc(F)cc2)CC1 | 107
Nc1ccc2ncnc(NCCc3ccc(Oc4ccccc4)cc3)c2c1 | 86.6
Cc1nc(-c2ccccc2)c(-c2ccncc2)o1 | 93.8
Cc1cccc(-c2[nH]c(C(C)(C)C)nc2-c2ccc3c(c2)OCO3)n1 | 124
NCCNc1ncc(C(N)=O)c(Nc2cccc(C(F)(F)F)c2)n1 | 100

Sample 4 — cell line: A-375; tested at: 100 µM; time: 18 h
Compound | viability
COc1ccc2cc1Oc1ccc(cc1)C[C@H]1c3c(cc4c(c3Oc3cc5c(cc3OC)CCN(C)[C@@H]5C2)OCO4)CCN1C | 11%
COc1ccc2cc1Oc1ccc(cc1)C[C@H]1c3cc(c(OC)cc3CCN1C)Oc1c(OC)c(OC)cc3c1[C@H](C2)N(C)CC3 | 10%
CCN(CCO)CCCC(C)Nc1ccnc2cc(Cl)ccc12 (centres unmarked) | 29.2%
Cc1c(-c2ccc(O)cc2)n(Cc2ccc(OCCN3CCCCCC3)cc2)c2ccc(O)cc12 | 9.94%
Cc1cccc(N(C)C(=S)Oc2ccc3ccccc3c2)c1 | 83.9%

Sample 5 — organism: Sarcocystis neurona; effect on: parasite growth; tested at: 10 µM
Structure (SMILES) | inhibition [%]
COc1cc(CNC(=O)CCCC/C=C\C(C)C)ccc1O | -40
Nc1ncn([C@@H]2O[C@H](CO)[C@@H](O)[C@H]2O)c(=O)n1 | -26.4
CCC(C)n1ncn(-c2ccc(N3CCN(c4ccc(OCC5COC(Cn6cncn6)(c6ccc(Cl)cc6Cl)O5)cc4)CC3)cc2)c1=O (centres unmarked) | -35.4
CCC(C)(C)C(=O)O[C@H]1C[C@@H](C)C=C2C=C[C@H](C)[C@H](CC[C@@H]3C[C@@H](O)CC(=O)O3)[C@H]21 | -28.4
Nc1nnc(-c2cccc(Cl)c2Cl)c(N)n1 | -23.5

Some of these lines once more (sample 3):
Compound | remaining activity [%]
Oc1ccc(-c2nc(-c3ccncc3)c(-c3ccc(F)cc3)[nH]2)cc1 | 94.4
COc1cc2ncnc(Nc3ccc(F)c(Cl)c3)c2cc1OCCCN1CCOCC1 | 87.4
Nc1ncnc2n[nH]c(Nc3ccc(F)cc3)c12 | 101
